# Results pooled from the literature.
# A part holds a random share of what one study measured. Positions count from the first letter of the parent shown.

# Sample 1
# Target: TAR DNA-binding protein 43, full length, His tag (TARDBP, Homo sapiens, UniProt Q13148, residues 1-414)
# Technique: RNA Bind-n-Seq
# Molecule type: RNA
# Medium: in vitro
# Tested at: 20 nM
# Setting: 6-mer, flanks averaged, single round
# With: 150 mM LiCl
# Reference: input library
# Reading: higher = stronger binding
Oligonucleotide,6-mer enrichment (R)
UAAUGG,1.02
CCGAUC,0.85
AGCAAC,0.851
UCGUUA,0.893
AUGACA,0.875
GAUCCU,0.853
GUCGAA,0.912
CAUGCG,0.946

# Sample 2
# Target: Sal-like protein 4, full length isoform B (SALL4, Homo sapiens, UniProt Q9UJQ4-2, residues 1-616)
# Technique: universal PBM
# Molecule type: double-stranded DNA, one strand shown
# Medium: in vitro
# Tested at: not given
# Setting: 8-mer, flanks averaged, mean of replicates
# Reading: higher = stronger binding
Oligonucleotide,E-score
CGACGAGA,-0.0924
ACGCCGAC,-0.214
GGGTTCGA,-0.238
CTATGTCC,-0.054
ACGTGCCG,-0.153
GATTTACA,0.242
GATAATGC,0.0947
CGCTTTTA,0.157

# Mixed results
# P1: viral docking peptide; CKVKRKLFGSENI; partner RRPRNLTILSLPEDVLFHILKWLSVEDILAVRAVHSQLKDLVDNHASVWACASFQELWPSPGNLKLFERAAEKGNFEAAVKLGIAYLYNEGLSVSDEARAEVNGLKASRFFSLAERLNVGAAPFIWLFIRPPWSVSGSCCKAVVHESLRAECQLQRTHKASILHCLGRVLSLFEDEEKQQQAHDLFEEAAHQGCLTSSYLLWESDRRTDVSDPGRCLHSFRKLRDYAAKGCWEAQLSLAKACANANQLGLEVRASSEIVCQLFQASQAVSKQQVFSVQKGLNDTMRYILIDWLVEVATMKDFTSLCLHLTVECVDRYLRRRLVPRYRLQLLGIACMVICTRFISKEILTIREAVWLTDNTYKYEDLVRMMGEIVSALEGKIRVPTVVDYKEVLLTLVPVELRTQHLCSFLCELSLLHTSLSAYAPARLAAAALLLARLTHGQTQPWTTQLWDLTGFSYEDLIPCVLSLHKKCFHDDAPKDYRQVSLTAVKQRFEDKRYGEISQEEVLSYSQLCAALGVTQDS
Substance,target,test,system,conditions,how to read,endpoint,value
P1 S10A,"CCNF, cyclin fold, Cln2 fusion (human)","yeast growth competition, sequencing",yeast,strong parent motif,"reference: not given, higher = stronger binding",normalised enrichment score,8.69
LLRDKDGVY,"HLA class I histocompatibility antigen, A alpha chain, allele A*26:03 (Homo sapiens, UniProt P04439)",peptide-MHC binding,peptide,concentration not given,,binding,inactive

# Repeated from above (sample 1):
Oligonucleotide,6-mer enrichment (R)
GUCGAA,0.912
CCGAUC,0.85
UCGUUA,0.893
